Experimental data collected from several papers.
Lines come from different studies, so protocols differ. ± gives the spread as reported. Converted amounts (≈) assume the structure as drawn.

CCCCC/C=C/C(=O)CCc1ccc(O)c(OC)c1
IC50 (mouse mAb 1-G12; antibody binding, indirect competitive ELISA; added: coating antigen 5-OVA): 0.107 µg/mL (≈ 0.388 µM)

CCN(CC)CC(=O)Nc1cccc(-n2cc(-c3ccc4ccc(-c5cn(-c6cccc(NC(=O)CN(CC)CC)c6)nn5)cc4c3)nn2)c1
GLUT-1 protein level (GLUT-1; Western blot; nude mouse, tumour xenograft; ip, 15 mg/kg, 16 h; relative to: vehicle): 9.3%

COC1=CC(c2ccc[nH]2)=NC1=Cc1[nH]c(Cc2ccc(Cl)cc2)cc1Cc1ccc(Cl)cc1
parasitaemia suppression (Plasmodium yoelii; Kenya strain MRA-428, mice; oral, 25 mg/kg daily for 4 days, day 5): 100%

Cc1nc(C)c(C=[N+]([O-])C(C)(C)C)nc1C
protein level increase (Western blot, measured: PGC-1α; primary midbrain neurons, rat; 30 µM, added: 20 µM MPP+): 28.1%

COc1cc(CNC(=O)C[C@H](C)CCC=C(C)C)ccc1OCc1cn(-c2ccc(F)cc2)nn1
growth percent (Malme-3M melanoma cells; SRB; 10 µM, 48 h): 96%

CC(=O)[O-].O.O.O.O.[Mn+2].[O-]c1ccc(Br)cc1C=NCCN1CCOCC1
inhibition zone diameter (Shigella flexneri; 20 µL of 100 µM per disc): 20 mm

COc1cc(CNC(=O)C[C@H](C)CCC=C(C)C)ccc1OCc1cn(-c2ccccc2[N+](=O)[O-])nn1
growth percent (OVCAR-4 ovarian cancer cells; SRB; 10 µM, 48 h): 45.3%

CC(C)(O)c1ccc(N2Cc3c(ccnc3-c3ccc(F)cc3OCC(F)(F)F)C2=O)cc1
glucosylceramide level (Gaucher disease mouse model, brain; 30 mg/kg, 2 months once daily; relative to: vehicle): 40 ± 3%

COc1cc(CNC(=O)C[C@H](C)CCC=C(C)C)ccc1OCc1cn(-c2cccc(C(F)(F)F)c2)nn1
growth percent (SF-295 CNS cancer cells; SRB; 10 µM, 48 h): 72.9%

COc1cc(CCC(C)=O)ccc1O
IC50 (mouse mAb 1-G12; antibody binding, indirect competitive ELISA; added: coating antigen 2-OVA): > 4 µg/mL

COc1cc(CNC(=O)C[C@H](C)CCC=C(C)C)ccc1OCc1cn(-c2ccc(Cl)c(Cl)c2)nn1
growth percent (SF-268 CNS cancer cells; SRB; 10 µM, 48 h): 58.4%

CCC/C(=C\C1=C(F)C(=O)c2ccccc2C1=O)C(=O)N(CC)CC
EC50 (NF-κB; reporter gene, luciferase reporter; NF90-8; 24 h, basal activity): 11.9 ± 0.81 µM
